Results gathered from unrelated publications.
A part holds a random share of what one study measured. Substitutions count along the parent as printed.
Sequence of UniProt O43567 (whole entry, looked up): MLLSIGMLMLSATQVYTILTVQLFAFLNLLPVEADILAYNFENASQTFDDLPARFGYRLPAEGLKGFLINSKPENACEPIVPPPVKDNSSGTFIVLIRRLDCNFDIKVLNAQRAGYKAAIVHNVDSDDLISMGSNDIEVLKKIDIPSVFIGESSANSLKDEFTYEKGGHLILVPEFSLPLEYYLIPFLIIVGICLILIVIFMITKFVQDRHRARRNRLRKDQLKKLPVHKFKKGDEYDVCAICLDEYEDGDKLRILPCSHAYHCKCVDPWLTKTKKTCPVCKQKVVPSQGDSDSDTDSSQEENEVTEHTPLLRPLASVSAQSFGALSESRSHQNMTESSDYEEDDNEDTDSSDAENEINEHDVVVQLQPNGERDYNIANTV
Sequence of UniProt Q9UNE7 (whole entry, looked up): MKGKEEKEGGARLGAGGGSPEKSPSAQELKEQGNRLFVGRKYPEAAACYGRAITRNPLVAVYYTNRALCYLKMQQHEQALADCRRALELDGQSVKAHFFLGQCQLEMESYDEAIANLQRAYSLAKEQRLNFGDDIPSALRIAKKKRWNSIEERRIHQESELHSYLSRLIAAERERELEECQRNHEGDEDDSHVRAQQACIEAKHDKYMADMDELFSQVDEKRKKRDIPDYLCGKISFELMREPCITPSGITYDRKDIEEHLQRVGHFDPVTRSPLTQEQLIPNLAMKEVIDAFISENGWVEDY
Sequence of UniProt Q9BY78 (whole entry, looked up): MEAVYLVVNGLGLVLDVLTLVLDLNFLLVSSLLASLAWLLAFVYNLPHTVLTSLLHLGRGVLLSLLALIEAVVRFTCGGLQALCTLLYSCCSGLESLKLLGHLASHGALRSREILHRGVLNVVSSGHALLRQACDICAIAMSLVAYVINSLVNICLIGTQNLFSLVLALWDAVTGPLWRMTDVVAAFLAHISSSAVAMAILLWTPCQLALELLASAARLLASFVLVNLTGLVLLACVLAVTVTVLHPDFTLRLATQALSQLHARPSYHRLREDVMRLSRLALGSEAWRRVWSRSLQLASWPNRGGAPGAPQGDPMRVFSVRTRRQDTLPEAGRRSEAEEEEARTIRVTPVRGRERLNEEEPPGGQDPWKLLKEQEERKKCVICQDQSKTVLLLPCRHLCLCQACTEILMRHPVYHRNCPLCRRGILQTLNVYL

Series 1
Target: CCND1, cyclin fold, Cln2 fusion (human)
Technique: yeast growth competition, sequencing
Sample: yeast
Setting: strong parent motif
Relative to: not given
Direction: higher = stronger binding
Parent: viral docking peptide; YKVKRRLVFGADD
Variant | normalised enrichment score
K4I | 0.416
K4H | 0.386
R6H | 0.463
F9Q | 0.192
G10D | 4.45
A11W | 1.29
L7P | -0.00568
D13A | 0.551

Series 2
Target: HLA class I histocompatibility antigen, A alpha chain, allele A*25:01 (Homo sapiens, UniProt P04439)
Read-out: peptide-MHC binding
Molecule type: peptide
Concentration: concentration not given
Sequence | binding
KLHRYIDSM | inactive
DEWECTRDD | inactive
RGRKPIFRK | inactive
TMMRHRREL | inactive
PPPPLQHPI | inactive
LPSSSSYSY | inactive
ATATWFQYY | inactive
ESEVDDPAM | inactive

Series 3
Target: UBE2D2 UBC core domain (UniProt P62837)
Sequence of UniProt P62837 (whole entry, looked up): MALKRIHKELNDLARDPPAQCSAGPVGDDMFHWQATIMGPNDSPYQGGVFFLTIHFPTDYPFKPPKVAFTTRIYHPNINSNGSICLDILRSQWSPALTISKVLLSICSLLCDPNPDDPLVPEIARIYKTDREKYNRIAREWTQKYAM
Technique: yeast two-hybrid
Sample: yeast
Setting: mostly zero background
Relative to: not given
Direction: higher = stronger interaction
Molecule | lacZ reporter activity
STUB1 RING domain (UniProt Q9UNE7) | 0
RNF26 RING domain (UniProt Q9BY78) | 9450
RNF13 RING domain (UniProt O43567) | 13100

Mixed results
Molecule | tested on | assay | setting | scale | measurement | result
CCCC(C)(COC(N)=O)COC(=O)NC(C)C (stereo not shown) | Sarcocystis neurona | parasite growth | 10 µM |  | inhibition | -26.7%
CC(C)N1CCN(c2ccc(OCC3COC(Cn4cncn4)(c4ccc(Cl)cc4Cl)O3)cc2)CC1 (stereo not shown) | HEK-293T/ACE2 |  | 10 µM, 16 h | relative to: vehicle | viability | 91.6%
SND1 (Homo sapiens, UniProt Q7KZF4) | LRRC59 (Homo sapiens, UniProt Q96AG4) | cross-linking MS | hits only |  | interaction screen | cross-linked

Excerpt of the above (series 1):
Variant | normalised enrichment score
K4I | 0.416
K4H | 0.386
